Measurements from different studies.
Each line is one published result; not all experiments were run side by side. Numbers after ± are the reported error.
rep main protease: Replicase polyprotein 1ab, main protease (rep, Severe acute respiratory syndrome coronavirus 2, UniProt P0DTD1)
Spike glycoprotein: Spike glycoprotein (Severe acute respiratory syndrome coronavirus 2, UniProt P0DTC2)
rep papain-like protease: Replicase polyprotein 1ab, papain-like protease (rep, Severe acute respiratory syndrome coronavirus 2, UniProt P0DTD1)
Sequence of UniProt Q12809 (whole entry, looked up): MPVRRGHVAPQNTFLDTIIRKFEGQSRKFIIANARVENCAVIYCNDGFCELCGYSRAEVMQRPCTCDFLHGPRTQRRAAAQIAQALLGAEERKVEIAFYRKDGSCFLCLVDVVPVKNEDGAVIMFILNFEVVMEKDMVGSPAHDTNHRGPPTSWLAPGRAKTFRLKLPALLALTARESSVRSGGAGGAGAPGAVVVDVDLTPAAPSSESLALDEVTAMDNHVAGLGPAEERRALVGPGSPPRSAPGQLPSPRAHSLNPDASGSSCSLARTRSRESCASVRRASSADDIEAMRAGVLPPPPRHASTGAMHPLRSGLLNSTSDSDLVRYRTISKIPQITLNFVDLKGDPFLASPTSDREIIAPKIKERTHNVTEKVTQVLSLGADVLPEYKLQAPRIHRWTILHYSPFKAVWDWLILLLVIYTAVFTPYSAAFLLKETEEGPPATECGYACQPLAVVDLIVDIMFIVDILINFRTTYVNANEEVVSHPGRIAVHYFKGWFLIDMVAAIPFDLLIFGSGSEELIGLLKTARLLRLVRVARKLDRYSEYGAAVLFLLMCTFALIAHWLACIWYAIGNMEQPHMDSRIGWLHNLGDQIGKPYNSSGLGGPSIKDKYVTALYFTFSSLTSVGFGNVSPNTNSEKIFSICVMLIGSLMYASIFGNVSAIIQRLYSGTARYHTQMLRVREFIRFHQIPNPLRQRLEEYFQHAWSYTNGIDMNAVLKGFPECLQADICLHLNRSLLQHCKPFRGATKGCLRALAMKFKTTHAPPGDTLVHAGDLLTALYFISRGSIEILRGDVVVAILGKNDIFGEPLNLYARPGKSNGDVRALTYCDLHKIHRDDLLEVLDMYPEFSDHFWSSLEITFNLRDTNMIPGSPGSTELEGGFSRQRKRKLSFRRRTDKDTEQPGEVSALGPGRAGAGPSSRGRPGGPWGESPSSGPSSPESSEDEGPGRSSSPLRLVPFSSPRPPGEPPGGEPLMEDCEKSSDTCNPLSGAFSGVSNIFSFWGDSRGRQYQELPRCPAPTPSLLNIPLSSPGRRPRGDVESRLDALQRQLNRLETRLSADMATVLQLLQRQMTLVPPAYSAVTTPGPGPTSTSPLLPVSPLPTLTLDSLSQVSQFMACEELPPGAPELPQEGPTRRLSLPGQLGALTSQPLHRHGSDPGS

Cc1nn(C)c2ncc(C(=O)N3CC4(CCOCC4)C[C@H]3CNC(=O)c3cccnc3)cc12  inhibition (rep main protease; enzyme activity, inhibitor; 5 µM, run 1): 9.1%
COc1c2c(cc(O)c1-c1oc3cc(O)ccc3c1CO)OC(C)(C)CC2  inhibition (rep main protease; enzyme activity, inhibitor; concentration not given): 13.6%
O=C(Cc1cccnc1)N1CCC[C@H]([C@H]2CCN(C(=O)C3=CO[C@H]4C=CC(F)=CC4=C3)C2)C1  inhibition (rep main protease; enzyme activity, inhibitor; 5 µM, run 1): 16.4%
CCC[C@H](NC(=O)[C@@H]1[C@H]2CCC[C@H]2CN1C(=O)[C@@H](NC(=O)[C@@H](NC(=O)c1cnccn1)C1CCCCC1)C(C)(C)C)C(=O)C(=O)NC1CC1  inhibition (rep main protease; reporter gene (Gaussia luciferase), inhibitor; 20 µM): 2.56%
COc1ccc(-c2oc3cc(OC)cc(O)c3c(=O)c2OC)cc1  inhibition (rep main protease; enzyme activity, inhibitor; 100 µM): 12.5%
CC[C@H](C)[C@H](NC(=O)[C@H](CC(C)C)NC(=O)[C@H](Cc1c[nH]c2ccccc12)NC(=O)[C@H](CCC(N)=O)NC(=O)[C@@H](NC(=O)[C@H](Cc1ccccc1)NC(=O)[C@H](C)NC(=O)[C@H](CCCCNC(=O)COCCOCCNC(=O)COCCOCCNC(=O)CC[C@H](NC(=O)CCCCCCCCCCCCCCCCCCC(=O)O)C(=O)O)NC(=O)[C@H](CCC(N)=O)NC(=O)[C@H](C)NC(=O)[C@@H](NC(=O)[C@H](CCCCN)NC(=O)[C@H](CC(=O)O)NC(=O)[C@H](CC(C)C)NC(=O)C(C)(C)NC(=O)[C@@H](NC(=O)[C@H](CO)NC(=O)[C@H](Cc1ccc(O)cc1)NC(=O)[C@H](CC(=O)O)NC(=O)[C@H](CO)NC(=O)[C@@H](NC(=O)[C@H](Cc1ccccc1)NC(=O)[C@@H](NC(=O)CNC(=O)[C@H](CCC(=O)O)NC(=O)C(C)(C)NC(=O)[C@@H](N)Cc1ccc(O)cc1)[C@@H](C)O)[C@@H](C)O)[C@@H](C)CC)[C@@H](C)CC)C(C)C)C(=O)N[C@@H](C)C(=O)NCC(=O)NCC(=O)N1CCC[C@H]1C(=O)N[C@@H](CO)C(=O)N[C@@H](CO)C(=O)NCC(=O)N[C@@H](C)C(=O)N1CCC[C@H]1C(=O)N1CCC[C@H]1C(=O)N1CCC[C@H]1C(=O)N[C@@H](CO)C(N)=O  subjects with adverse event (measured: treatment-emergent upper respiratory tract infection; healthy subjects; 1.5 mg, multiple ascending dose): 0%
CNC(=O)[C@@H](NC(=O)[C@H](CC(C)C)[C@H](O)C(=O)NO)C(C)(C)C  remaining activity (Daboia russelii venom proteases (SVMP); protease activity, inhibitor; RJ population; 100 µM, with: azocasein substrate; relative to: venom alone): 0%
Cc1cncc(CC(=O)N2CCC[C@@H]([C@@H]3CCN(C(=O)c4cnn(-c5ccccn5)c4)C3)C2)c1  inhibition (rep main protease; enzyme activity, inhibitor; 5 µM, run 1): 21.7%
CC(C)(C)c1ccc(Oc2ccc(N)cn2)cc1  inhibition (rep main protease; reporter gene (mKate2), inhibitor; 20 µM): 0.303%
COc1cc(OC)c2c(=O)c(OC)c(-c3ccccc3)oc2c1  inhibition (rep main protease; enzyme activity, inhibitor; 10 µM): -9.08%
C[C@@H]1O[C@@H](Oc2c(-c3cc(O)c(O)c(O)c3)oc3cc(O)cc(O)c3c2=O)[C@H](O)[C@H](O)[C@H]1O  Kd (Spike glycoprotein; binding, biolayer interferometry): 124 µM
O=C(c1cc2ccc(O)cc2[nH]1)N1CC2(C1)CN(C(=O)[C@H]1CCc3n[nH]nc3C1)CCO2  inhibition (rep main protease; enzyme activity, inhibitor; 5 µM, run 2): 11.9%
CCOC(=O)c1cc2cc(-c3cc(C(=O)NCc4ccc(C(=O)O)cc4)nn3C)ccc2[nH]1  inhibition (rep main protease; reporter gene (mKate2), inhibitor; HEK293T; 20 µM): 0.386%
O=c1c(O)c(-c2cc(O)c(O)c(O)c2)oc2cc(O)cc(O)c12  inhibition (rep main protease; enzyme activity, inhibitor; 10 µM): 99.7%
COc1cccc(CNC(=O)C2CCN(Cc3cc4ccccc4n3Cc3ccccc3)CC2)c1OC  maximum response (SARS-CoV-2; cytopathic effect; USA_WA1/2020; retest, 8-point, duplicates): 4.75%
COc1cc2occ(-c3ccc(O)cc3O)c(=O)c2c(O)c1CC=C(C)C  inhibition (rep papain-like protease; enzyme activity, inhibitor; concentration not given): 54.3%
COc1ccc(-c2oc3cc(OC)cc(OC)c3c(=O)c2OC)cc1  inhibition (rep main protease; enzyme activity, inhibitor; 100 µM): -6.57%
CC(C)=CCc1c(O)c(CC=C(C)C)c2oc3c(O)ccc(O)c3c(=O)c2c1O  inhibition (rep main protease; reporter gene (Gaussia luciferase), inhibitor; 20 µM): -3.25%
COc1cc(O)cc2c1[C@@H]1Oc3c(ccc4c3C=CC(C)(C)O4)[C@@H]1CO2  inhibition (rep papain-like protease; enzyme activity, inhibitor; concentration not given): 35%
O=C(NC[C@H]1CN(C(=O)c2cc(O)ccc2F)CC[C@@]12CCOC2)c1ccc2n[nH]nc2c1  inhibition (rep main protease; enzyme activity, inhibitor; 5 µM, run 1): 15.6%
CCOP(=S)(OCC)Oc1nc(Cl)c(Cl)cc1Cl  Ki (rat CYP2C; tolbutamide hydroxylation, non-competitive inhibitor; rat Sprague-Dawley, liver microsomes; 30 min, pH 7.4, with: tolbutamide 1 to 10 mM): 84.8 ± 19.4 µM
Cc1nn(-c2ccc(Cl)cc2)c2c1C(c1ccc(Cl)cc1Cl)C(C#N)=C(N)O2 (centres unmarked)  inhibition (rep main protease; 3CL protease activity; 0.0001 µg/mL, 120 min, enzyme 0.1 ng/mL): 1.87%
CC(=O)c1c(O)c(C)c(O)c(Cc2c(O)c3c(c(C(=O)/C=C/c4ccccc4)c2O)OC(C)(C)C=C3)c1O  activation rate (KCNH2 (Homo sapiens, UniProt Q12809); ion current, activator, whole-cell patch clamp; HEK293 expressing hERG1; 15 µM; relative to: untreated): 2.4 ± 0.3 fold
Cc1nc(-c2ccccc2F)c(C(=O)NC(Cc2ccccc2)C(=O)C(N)=O)o1 (centres unmarked)  inhibition (rep main protease; reporter gene (mKate2), inhibitor; 20 µM): -0.553%
CCN(CC)CCNC(=O)c1ccc(-c2nc(CN3CCc4ccccc43)c(C)o2)cc1  efficacy (SARS-CoV-2; cytopathic effect; USA_WA1/2020; round 2, 5-point): 108%
COc1ccc(S(=O)(=O)N(Cc2cccnc2)[C@@H](C(=O)NO)C(C)C)cc1  inhibition (rep main protease; reporter gene (mKate2), inhibitor; 20 µM): -0.213%
COc1cc(O)c(CC=C(C)C)c2c1C(=O)CC(c1ccc(O)cc1)O2 (centres unmarked)  Kd (Spike glycoprotein; binding, BLI): 10.6 µM
C=C1[C@@H](C)[C@H]2[C@H](Cc3ccccc3)NC(=O)[C@]23[C@H](OC(C)=O)/C=C/[C@](C)(O)C[C@@H](C)C/C=C/[C@H]3[C@@H]1O  inhibition (rep main protease; reporter gene (mKate2), inhibitor; 20 µM): -0.644%
O=C(NC[C@H](NC(=O)c1cn[nH]c1-c1ccoc1)c1ccc2ccccc2c1)c1ccccc1  inhibition (rep main protease; enzyme activity, inhibitor; 5 µM, mean of runs): 13.5%
O=c1c2ccccc2[se]n1-c1ccccc1  inhibition (rep main protease; enzyme activity, inhibitor; 40 µM): 104%
O=C1C[C@@H](c2ccc(O[C@@H]3O[C@H](CO)[C@@H](O)[C@H](O)[C@H]3O)cc2)Oc2cc(O[C@@H]3O[C@H](CO)[C@@H](O)[C@H](O)[C@H]3O)ccc21  inhibition (rep papain-like protease; enzyme activity, inhibitor; concentration not given): 42.8%
Nc1ncnc2c([C@@H]3N[C@H](CO)[C@@H](O)[C@H]3O)c[nH]c12  inhibition (Middle East respiratory syndrome-related coronavirus; viral replication; Vero C1008, Jordan N3; 6.3 µM): 5.7%
Cn1cnc(Cn2c(=O)[nH]/c(=N\c3cc4cn(C)nc4cc3Cl)n(Cc3cc(F)c(F)cc3F)c2=O)n1  patients with adverse event (human, normal renal function; oral, 375 mg, hypertriglyceridaemia TEAE, Mild severity): 0%
Cc1ccc2[nH]ncc2c1C(=O)NC[C@H]1Cc2ccccc2CN1C(=O)C[C@H](C)c1ccco1  inhibition (rep main protease; enzyme activity, inhibitor; 5 µM, run 1): 11.1%
CC1(C)C=Cc2c(ccc(-c3coc4cc(O)cc(O)c4c3=O)c2O)O1  inhibition (rep main protease; enzyme activity, inhibitor; concentration not given): 14.8%
COc1cc(O)c2c(=O)cc(-c3ccccc3)oc2c1  inhibition (rep main protease; enzyme activity, inhibitor; 100 µM): 10.9%
O=C(O)c1cc(Oc2ccc([N+](=O)[O-])cc2)cc(Oc2ccc([N+](=O)[O-])cc2)c1  inhibition (rep main protease; reporter gene (mKate2), inhibitor; 20 µM): -0.115%
COc1cc2c(c3oc(-c4ccc(O)cc4O)cc13)C(C)(C)C(C)O2 (centres unmarked)  inhibition (rep main protease; enzyme activity, inhibitor; concentration not given): 5.9%
COc1cc(O)c2c(=O)c(OC)c(-c3ccc(OC)c(OC)c3)oc2c1  inhibition (rep main protease; enzyme activity, inhibitor; 100 µM): 16.1%
CC1(C)C=Cc2c(O)ccc(-c3coc4cc(O)cc(O)c4c3=O)c2O1  inhibition (rep main protease; enzyme activity, inhibitor; concentration not given): 61.2%
Cc1cncc(CC(=O)N2CCC[C@H]([C@H]3CCN(C(=O)c4cnc5cc(C)ccc5c4)C3)C2)c1  inhibition (rep main protease; enzyme activity, inhibitor; 5 µM, mean of runs): 10.9%

Some of these lines once more:
COc1ccc(S(=O)(=O)N(Cc2cccnc2)[C@@H](C(=O)NO)C(C)C)cc1  inhibition (rep main protease; reporter gene (mKate2), inhibitor; 20 µM): -0.213%
Cn1cnc(Cn2c(=O)[nH]/c(=N\c3cc4cn(C)nc4cc3Cl)n(Cc3cc(F)c(F)cc3F)c2=O)n1  patients with adverse event (human, normal renal function; oral, 375 mg, hypertriglyceridaemia TEAE, Mild severity): 0%
CCOC(=O)c1cc2cc(-c3cc(C(=O)NCc4ccc(C(=O)O)cc4)nn3C)ccc2[nH]1  inhibition (rep main protease; reporter gene (mKate2), inhibitor; HEK293T; 20 µM): 0.386%
Cc1nc(-c2ccccc2F)c(C(=O)NC(Cc2ccccc2)C(=O)C(N)=O)o1 (centres unmarked)  inhibition (rep main protease; reporter gene (mKate2), inhibitor; 20 µM): -0.553%
COc1cc(O)c(CC=C(C)C)c2c1C(=O)CC(c1ccc(O)cc1)O2 (centres unmarked)  Kd (Spike glycoprotein; binding, BLI): 10.6 µM
CC(=O)c1c(O)c(C)c(O)c(Cc2c(O)c3c(c(C(=O)/C=C/c4ccccc4)c2O)OC(C)(C)C=C3)c1O  activation rate (KCNH2 (Homo sapiens, UniProt Q12809); ion current, activator, whole-cell patch clamp; HEK293 expressing hERG1; 15 µM; relative to: untreated): 2.4 ± 0.3 fold
COc1cc2occ(-c3ccc(O)cc3O)c(=O)c2c(O)c1CC=C(C)C  inhibition (rep papain-like protease; enzyme activity, inhibitor; concentration not given): 54.3%
